Experimental data collected from several papers.
Every numbered part comes from another study and shows a few of its results, in no order. Positions count from the first letter of the parent shown.

Block 1
Target: CCND3, cyclin fold, Cln2 fusion (human)
Method: yeast growth competition, sequencing
Sample: yeast
Notes: weak parent motif
Reference: not given
Direction: higher = stronger binding
Starting sequence: SAMHD1 docking peptide (human); ASKSRVQLFKDDP
Variant	normalised enrichment score
Q7A	-0.39
Q7G	0.206
Q7E	-0.0598
F9G	0.0131
D12W	-0.304
D12C	-0.0288
K10C	0.0786
F9Y	0.0859
Q7D	-0.0756
R5N	-0.16
K3S	0.158
D12Y	0.679
K10T	0.0294
F9S	0.616
L8R	0.232
V6W	-0.304
R5Y	-0.0903
R5D	-0.0257
S4E	-0.113
D11M	0.232
S2H	0.383
L8Q	0.00338
S2R	-0.0572
F9Q	-0.00428
S2P	-0.114

Block 2
Target: Fragile X messenger ribonucleoprotein 1, C-terminal low-complexity region (Fmr1, Mus musculus, UniProt P35922)
Method: RNA Bind-n-Seq
Form: RNA
Sample: in vitro
Tested at: 200 nM
Notes: whole 134-nt RNA, ends assumed
Together with: 150 mM KCl
Reference: input library
Direction: higher = stronger binding
Strand	log2 enrichment
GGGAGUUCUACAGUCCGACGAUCUGCGGGCCGAGAAUCGGGAGCUGGGCAAACGCGUACAGGCACUGCAGGAGGAGAGUCGCUACCUACGGGCAGUCUUAGCCAACGAGACUGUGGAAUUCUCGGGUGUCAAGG	-1.17
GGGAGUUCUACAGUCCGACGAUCUCCUGUGCUACACAUCGUAUGUACCGAAUCGGGGAGGGGUUUUUUUGGGGAAAAAGGGGAAAGUAUUAUGUUACGCCGUUCGGAUCUGCAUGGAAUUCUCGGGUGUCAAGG	0.69
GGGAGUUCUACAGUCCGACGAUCUUUCUGCAGCAUUAGAGAAGGCCCAAGAAGAAGCCCGUCAGCAGCAAGAAACAUUAGCCAUUCAAGUAAGCAAUGGAUGAUGAAUUAGAGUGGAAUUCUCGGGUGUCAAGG	-1.27
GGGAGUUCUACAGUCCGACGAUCUCCUGUGCUACACAUCGUAUGUACCGAAUCGGAAAAAAAGGAAAAAAAGGAAAAAAAGGAAAGUAUUAUGUUACGCCGUUCGGAUCUGCAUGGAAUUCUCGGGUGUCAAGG	-0.273
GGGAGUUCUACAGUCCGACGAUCACCAUGCAGGUGGGCAUCUUUGGGAAGUGGGGCAAGGGGGGGAUAGGGAGGGGGGUAACACUUUGGGAACAGGUGGUCCCAGGGCGUUUCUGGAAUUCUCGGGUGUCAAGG	0.69
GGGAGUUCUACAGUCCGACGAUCGCAGGAAGGAAAAACAAAUGGAAAUGCUUCGGAUAGUGGCAGGGGUGGGGGUUGCUAAGGAAAGGGUGGGAUGGGAGUGGGUAAAGAGUUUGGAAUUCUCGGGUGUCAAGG	0.774
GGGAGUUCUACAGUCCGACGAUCUUCCAGGCUCAAGCACGGACAUCAGUGAGGACUGGGAGAAAGACUUUGACUUGGACAUGACUGAAGAGGAGGUGCAGAUGGCACUUUCCAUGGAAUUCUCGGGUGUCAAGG	-0.402
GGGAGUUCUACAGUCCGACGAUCACCAUGCAGGUGGGCAUCUUUGGGAAGUGGGGCAAGGGGGGGAUAGGGAGGGGGGUAUCACUUUGGGAACAGGUGGUCCCAGGUCGUUUCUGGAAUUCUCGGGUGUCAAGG	0.995
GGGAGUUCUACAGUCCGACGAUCGUCCUGUGCUACACAUCGUAUGUACCGAAUCGGGUUUUUGGGAAAAAGGGAAAAAGGGAAAGUAUUAUGUUACGCCGUUCGGAUCUGCACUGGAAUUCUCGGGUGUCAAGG	-0.476
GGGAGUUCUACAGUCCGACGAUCUGGAAGGAACGAGCCAGGAAGAGGGACUGGAACCAUCUCAGAAGCCAUGCCCCUCAGGCUGGAACUUGCCCUGUCUCCUCGCAGAUGAGGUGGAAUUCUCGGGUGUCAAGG	-1.6

Block 3
Target: Phosphate system positive regulatory protein PHO4, full length, GST-tagged (PHO4, Saccharomyces cerevisiae, UniProt P07270, residues 1-312)
Method: competition protein-binding microarray
Form: double-stranded DNA, one strand shown
Sample: in vitro
Tested at: 2 µM
Notes: whole 60-bp probe, lowest competitor level
Together with: Cbf1 competitor, 0.05 µM
Direction: higher = stronger binding
Target sequence (chain): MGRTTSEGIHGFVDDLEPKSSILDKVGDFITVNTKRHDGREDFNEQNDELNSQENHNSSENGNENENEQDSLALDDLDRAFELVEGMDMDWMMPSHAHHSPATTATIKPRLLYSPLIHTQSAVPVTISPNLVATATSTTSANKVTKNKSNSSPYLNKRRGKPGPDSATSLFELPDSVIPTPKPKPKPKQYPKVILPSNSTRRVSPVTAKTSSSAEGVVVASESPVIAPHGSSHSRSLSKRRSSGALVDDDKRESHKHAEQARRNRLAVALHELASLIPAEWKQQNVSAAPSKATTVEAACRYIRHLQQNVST
Strand	fluorescence intensity
AAATTACTAAGTTTTCACGTGCACTACCCCGTATGAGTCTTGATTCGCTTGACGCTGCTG	14400 a.u.
ATGTATTACCTAACTCAGGTGATGGAGTGCTCAGAGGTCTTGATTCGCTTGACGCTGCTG	4630 a.u.
CTAACGAAGGTTTGCCACGTGTTTTACAAGCCAAGTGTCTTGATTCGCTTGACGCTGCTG	16400 a.u.
CTCGAGGATTGCCTACGCGTGGGACTGATCCACCAAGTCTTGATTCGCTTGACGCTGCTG	8000 a.u.
CGTCGTCTGGGACGTAGTGTGACAGGATGTCTTCCAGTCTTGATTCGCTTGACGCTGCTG	4560 a.u.
CAGCTTCAACCAAATAACGTGGAGGTTCAGGAACAAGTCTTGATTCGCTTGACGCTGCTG	8300 a.u.
CAAACTCGAATCCATCACGTTTCACAATTGTTCCAAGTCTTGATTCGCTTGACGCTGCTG	11700 a.u.
CGGGGTTAAGTTTGAGTTGTGGGTGGCTTGCAGCAGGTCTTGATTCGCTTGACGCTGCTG	4560 a.u.
GTCTTGTCTCATTGTACCGTGGGTGTCCCCACTTCAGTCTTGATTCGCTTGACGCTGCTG	7460 a.u.
CGAATCCGGAAAAACTACGTGACGGGAACGATGACCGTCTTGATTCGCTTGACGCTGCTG	5700 a.u.
CTTTCCCGATCTTGCGATGTGGGTGTAGCACATTTGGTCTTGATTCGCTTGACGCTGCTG	5240 a.u.
AACTTCAGAAATTTGTCCGTGATGGTTTAATGGTCAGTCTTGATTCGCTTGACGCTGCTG	4130 a.u.
TAGCTAAAAACGAGTCACGTGATGGATATTCGAAAGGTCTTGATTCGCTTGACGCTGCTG	14500 a.u.
AAAGCGGTAATTTGCGCCGTGGGTGCAGATATCTATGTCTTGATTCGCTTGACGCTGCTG	5330 a.u.
TGTATGAGAGTGGTCGATTTCAATCGGCAACATTCTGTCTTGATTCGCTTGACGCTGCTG	3500 a.u.
AAAAGCAAATTTTCACACGTGAAGAAGTAAGCTGTTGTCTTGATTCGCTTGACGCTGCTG	11800 a.u.
AAAGCGGTAATTTGTCACCAAACTTCACATATCTATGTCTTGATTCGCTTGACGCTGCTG	3300 a.u.
CGGGGTTAAGTTTTTCACGTGTTCTGCTTGCAGCAGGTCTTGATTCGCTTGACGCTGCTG	12000 a.u.
CTAACGAAGGTTTGCTGAGTGGGTGACAAGCCAAGTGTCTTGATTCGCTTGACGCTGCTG	3760 a.u.
TTGAAATGGCCAATCACCGTGCCAGGCTTGCAAGTCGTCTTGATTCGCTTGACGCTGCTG	5810 a.u.
GAAACTCCAAGACGGTACGTGAGATTTTGGAGAAGAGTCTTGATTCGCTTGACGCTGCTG	3750 a.u.
CAATGGTTACTTCGACACATGCCACTAAGACAATACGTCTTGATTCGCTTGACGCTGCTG	10800 a.u.
CAAGGATTCCTAATTCACGTGCAAAAGCAACCGGATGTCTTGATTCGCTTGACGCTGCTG	13200 a.u.
TCAATGATCCCCTTGGGCGTGCAAAGCAAAAAGAATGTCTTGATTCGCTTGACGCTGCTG	8100 a.u.

Block 4
Target: RNA binding protein fox-1 homolog 2, RRM domain, GST-SBP tag (RBFOX2, Homo sapiens, UniProt O43251-10, residues 100-194)
Method: RNA Bind-n-Seq
Form: RNA
Sample: in vitro
Tested at: 365 nM
Notes: natural RNA segment, single round, ends assumed
Reference: no-protein control
Direction: higher = stronger binding
Target sequence (chain): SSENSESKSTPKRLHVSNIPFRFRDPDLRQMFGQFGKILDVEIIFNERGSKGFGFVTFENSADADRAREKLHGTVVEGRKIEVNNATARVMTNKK
Strand	RBNS enrichment (R)
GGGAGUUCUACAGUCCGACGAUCGGUCAGCUCCACAUUCUUUGUUGACGUGACACUAACGGCCAAUAAUAUGCUUCUUAAUUAUCAAAUUAUAGUUUCCCAAUUGGGAAACUAAUUGGGGGUGGGUUACAAAAUGGAAUUCUCGGGUGCCAA	0.41
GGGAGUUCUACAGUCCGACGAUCCCAUCGAGUAUUUCCCCCGGAACUGGAGAUUCGGGCGUCAUUUGGCUGCUACUUGCUUAGUGACUCCAGGCUGCAUCAUAUAUCAUAAUUUAUUUUAAAGAGAAAGUGAUUGGAAUUCUCGGGUGCCAA	0.699
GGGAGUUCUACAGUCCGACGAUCACAAAGAAAUCCUUCUACCUGAGAAGGCAGAAAUAGACCUGCCCGUGGGAGGAGCAUCAAGGGGCCUGUCUCUAGGAGCUGUGUGGUUCUGGGCAGUGGUCUGUUCACCCUGGAAUUCUCGGGUGCCAA	0.322
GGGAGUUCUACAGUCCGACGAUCGGAGGCAGCUGACCUCUCCAGUUGCUGUGUUGUAUUCCUACCCAAUUUCCUGGGCAGUUGAUGCAUCUCUGGGAAAAACACCAGAAAGCUUGCUGAAAUGGAAAACUUGGUGGAAUUCUCGGGUGCCAA	0.882
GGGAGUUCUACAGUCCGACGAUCAAACAGGAACCAAAUGUGACCUUGUGCAUAUAUUGGUAGCUGAAAAUCUUCAAGGCUACUGAUGGGUGGCCCCUUAAUCUUGUCUUUGAUUGCUGUGUGCAGGGAAAGGUUGGAAUUCUCGGGUGCCAA	0.676
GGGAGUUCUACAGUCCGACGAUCGCCUCCUCUCUGAUCAGAGCCGACACCAGACGUGAUUAGCAGGCGCAGCAAAUUCAAUUUGUUAAAUAAAUUGUAUUUUGCCCACGGCUGCUUCUGUUUGAUCCCCAGGGUGGAAUUCUCGGGUGCCAA	0.361
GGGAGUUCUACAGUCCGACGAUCUUGAAUGUGUAAGUCCCCACAGAGCAUGGACAGUCGGUGCAGAGUUCCAAGGAAACAAUUAUUGCCUGAUGACCACUUCCAUUUUGUAUACACUCUUUGGUUCGUAUAGGUGGAAUUCUCGGGUGCCAA	1.27
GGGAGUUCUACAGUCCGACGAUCGAGUGCGCAGCAAAUGACCUUCAUUGCCAGUUCCACCCUACUCCUCUCAUUUUUUAUACUAAGCAAUAACUUUCCAAAGCAAGAAGUUCAGGAUGGAGAGAGUCCCCUCCUGGAAUUCUCGGGUGCCAA	0.719
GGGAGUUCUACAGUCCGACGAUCGCCCCAUGCUGCAUCGUGUUGUAUUGGGAUGGGGCUGAGGAACAUGCUCCCUCCCUCCCUCCCAUAAAAUGCCUGCUCUUCACCUCCCACCUUUGUGGGGGGCUUUUGAGUGGAAUUCUCGGGUGCCAA	0.629
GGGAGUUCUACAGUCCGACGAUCGAAAAUGACUUAGGAAAAAACGUUUCUGAGCAAGCAUUCUGGCCCAUGCACUGGCUGAAGUGGGCAGACUGGAGGCGGCCUCUGCAAGAAAUGGAGUCAGGCGAAGUCCAUGGAAUUCUCGGGUGCCAA	1.33
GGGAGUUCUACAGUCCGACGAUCUGAAGUUCAUUAUUUUGUGGUUUUAUUUUACUUUGUACUUGUGUUUGCUUAAACAAAGUAACCUGUUUGGCUUAUAAACACAUUGAAUGCGCUCUAUUGCCCAUGGGAUAUGGAAUUCUCGGGUGCCAA	1.21
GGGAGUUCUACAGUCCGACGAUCUCUCUAUUCUGUUAAUUUAAUUUUAAAUGCUUUAUCCAUUUGUGCAAAGGUAAACACAGAUUGUAUCUUUUUUAAUGGUACGGCAUAAAAAAAUAACCCUAAAGUGAAGUUGGAAUUCUCGGGUGCCAA	0.812

A few entries again (block 3):
Strand	fluorescence intensity
CGGGGTTAAGTTTTTCACGTGTTCTGCTTGCAGCAGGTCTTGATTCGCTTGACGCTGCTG	12000 a.u.
CTAACGAAGGTTTGCTGAGTGGGTGACAAGCCAAGTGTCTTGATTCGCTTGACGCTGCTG	3760 a.u.
TTGAAATGGCCAATCACCGTGCCAGGCTTGCAAGTCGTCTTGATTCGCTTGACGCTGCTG	5810 a.u.
GAAACTCCAAGACGGTACGTGAGATTTTGGAGAAGAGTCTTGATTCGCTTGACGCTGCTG	3750 a.u.
CAATGGTTACTTCGACACATGCCACTAAGACAATACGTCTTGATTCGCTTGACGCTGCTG	10800 a.u.
